Assay results of several laboratories.
Numbered parts are unrelated; each lists some results of a single study.

Series 1
Target: RNA binding protein fox-1 homolog 2, RRM domain, GST-SBP tag (RBFOX2, Homo sapiens, UniProt O43251-10, residues 100-194)
Technique: RNA Bind-n-Seq
Form: RNA
Sample: in vitro
Concentration: 365 nM
Setting: natural RNA segment, single round, ends assumed
Relative to: no-protein control
Direction: higher = stronger binding
Construct (chain): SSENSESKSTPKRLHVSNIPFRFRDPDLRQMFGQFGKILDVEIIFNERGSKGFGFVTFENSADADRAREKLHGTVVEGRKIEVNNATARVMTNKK
`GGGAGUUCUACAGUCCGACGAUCUCUCUCAUUUUUUUCCUCCCAGUUUCCAAACAAGCCCUCAGUGAACAUCAUUGAAGCGUGACUGCCUGUCUGCAGGGAGAAGGAUUCCAUUUUUCUUCUCAGCUGGUCCCUGGAAUUCUCGGGUGCCAA`: “RBNS enrichment (R)” 0.342.
For `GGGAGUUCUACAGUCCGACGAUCACAUGAGAAAAUGACAGAGGAACUAAUAUAAGAGCAGAUCUUGACCCUUGCUGGGUCACUAUAAUUCUUUAGAAUUACUGAGUGAACUUUAAAAAAAUUUUCUGCAUAGGUGGAAUUCUCGGGUGCCAA`, “RBNS enrichment (R)” read 0.619.
Under “RBNS enrichment (R)”, `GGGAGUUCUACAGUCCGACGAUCAGAGUGAGAUUGGUAUUCAUUUACCUAUGUUGCGCCAGUUUGUGUUGCAGUUUACCAAUUCAAUAUAGCCCUGCAUUUAAAGUUCCUUUUUAAGAUUUGUGGAUUUUAUUUGGAAUUCUCGGGUGCCAA` is recorded as 0.324.
Under “RBNS enrichment (R)”, `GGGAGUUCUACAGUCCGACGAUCGCAGAAUGUGACACUCAAAGCAUCCAUGCAGUACGCAUGUAACCUUGCACAGGAGUGGGGCUCUGGUGACCGAAGGUUGUCCAGGACUCUUGCAGGAGAAGCAAUGGAGUUGGAAUUCUCGGGUGCCAA` is recorded as 0.921.
`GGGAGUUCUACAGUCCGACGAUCCCUUUGGUGCCAACUGGUGUUUGAAAGUAGGGACCUCAGAGGUUUACCUAGAGAACAGGUGGUUUUUAAGGGUUAUCUUAGAUGUUUCACACCGGAAGGUUUUUAAACACUGGAAUUCUCGGGUGCCAA` — result for “RBNS enrichment (R)”: 0.456.

Series 2
Target: Prothrombin, mature alpha-thrombin (F2, Homo sapiens, UniProt P00734)
Technique: aptamer microarray, sandwich
Form: DNA with 2'F-ANA
Sample: in vitro
Concentration: 200 nM
Setting: whole 15-mer aptamer, many near background
Added: Cy3 exosite-II aptamer, 400 nM
Direction: higher = stronger binding
Strand: GGTTGGTGTGGTTGG
For `2'F-ANA at 3 4 5 6 7 9 11 12 13`, “mean fluorescence intensity” read 87.9 a.u.
Under “mean fluorescence intensity”, `2'F-ANA at 3 4 8 9 12 13` is recorded as 637 a.u.
`2'F-ANA at 2 3 6 7 8 10 11 12 13 14 15`: “mean fluorescence intensity” 252 a.u.
`2'F-ANA at 2 7 8 10 14 15`: “mean fluorescence intensity” 86.2 a.u.
Under “mean fluorescence intensity”, `2'F-ANA at 1 4 6 8 14 15` is recorded as 54.3 a.u.
`2'F-ANA at 2 5 6 8 9 12 13 14`: “mean fluorescence intensity” 44.3 a.u.
`2'F-ANA at 2 3 9 13`: “mean fluorescence intensity” 651 a.u.
`2'F-ANA at 1 4 9 11 14`: “mean fluorescence intensity” 46.7 a.u.

Series 3
Target: Histone acetyltransferase KAT6A, both winged helices, GST fusion (KAT6A, Homo sapiens, UniProt Q92794, residues 1-181)
Technique: protein binding microarray
Form: double-stranded DNA, one strand shown
Sample: in vitro
Concentration: not given
Setting: 8-mer, flanks averaged, mean of 2 arrays, mostly near background
Relative to: not given
Direction: higher = stronger binding
Construct (chain): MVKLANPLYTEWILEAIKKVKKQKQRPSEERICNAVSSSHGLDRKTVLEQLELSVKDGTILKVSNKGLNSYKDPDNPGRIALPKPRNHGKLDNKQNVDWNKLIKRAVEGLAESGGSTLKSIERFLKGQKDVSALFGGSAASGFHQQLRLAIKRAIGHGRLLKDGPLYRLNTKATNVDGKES
The E-score of `ATTGCGGC` is reported as 0.262.
For `ACAAGTAC`, the E-score was -0.132.
With `ATTCGCTA` the E-score was -0.000225.
`CTTCCAGC` has an E-score of -0.0273.
For `AGGCTGAG`, the E-score was -0.149.
The E-score of `AGCGAAGA` is reported as 0.00492.
The E-score of `ATTAAGCA` is reported as -0.162.
The E-score of `CCCAACGC` is reported as 0.0979.

Single results of other studies
For `PhoQ, residues 284 288 289 292 302 303 GASLAW`, the fold induction was 1.81 (PhoP, residues 12 14 15 18 19 AGCRL (Escherichia coli, UniProt P23836); Sort-seq, item: YFP reporter; E. coli; PhoQ-PhoP variant library, added: 10 µM Mg2+; relative to: high Mg2+ state, higher = stronger signaling).

For quick reference, copied from above (series 3):
The E-score of `AGCGAAGA` is reported as 0.00492.
The E-score of `ATTAAGCA` is reported as -0.162.
